Measurements collected from several papers.
Each line is one published result; not all experiments were run side by side. Numbers after ± are the reported error.
Tumor necrosis factor receptor superfamily member 9/Nectin-4: Tumor necrosis factor receptor superfamily member 9/Nectin-4 (Homo sapiens, UniProt Q07011+Q96NY8)
Sequence of UniProt Q96NY8 (whole entry, looked up): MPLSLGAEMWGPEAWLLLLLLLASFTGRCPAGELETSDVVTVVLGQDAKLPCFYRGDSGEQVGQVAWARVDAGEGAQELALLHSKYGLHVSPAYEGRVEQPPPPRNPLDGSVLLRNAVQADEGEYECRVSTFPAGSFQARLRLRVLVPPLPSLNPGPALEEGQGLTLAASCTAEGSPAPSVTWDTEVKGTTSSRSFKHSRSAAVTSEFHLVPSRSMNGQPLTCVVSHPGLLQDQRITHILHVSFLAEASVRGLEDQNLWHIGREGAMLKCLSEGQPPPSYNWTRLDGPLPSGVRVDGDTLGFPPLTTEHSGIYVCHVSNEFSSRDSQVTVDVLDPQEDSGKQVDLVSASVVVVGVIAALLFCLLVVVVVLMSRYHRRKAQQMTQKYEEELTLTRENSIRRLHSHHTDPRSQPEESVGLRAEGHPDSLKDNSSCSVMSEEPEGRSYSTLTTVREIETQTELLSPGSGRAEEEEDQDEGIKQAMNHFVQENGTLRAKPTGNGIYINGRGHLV
Sequence of UniProt Q07011 (whole entry, looked up): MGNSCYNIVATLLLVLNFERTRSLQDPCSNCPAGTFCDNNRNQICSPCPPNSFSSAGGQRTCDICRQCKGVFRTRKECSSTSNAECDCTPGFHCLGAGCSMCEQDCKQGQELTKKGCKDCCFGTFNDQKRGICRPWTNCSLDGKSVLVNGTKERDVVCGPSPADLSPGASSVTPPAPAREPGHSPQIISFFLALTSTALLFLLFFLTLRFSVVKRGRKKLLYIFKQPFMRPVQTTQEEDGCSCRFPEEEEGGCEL
Sequence of UniProt P35348 (whole entry, looked up): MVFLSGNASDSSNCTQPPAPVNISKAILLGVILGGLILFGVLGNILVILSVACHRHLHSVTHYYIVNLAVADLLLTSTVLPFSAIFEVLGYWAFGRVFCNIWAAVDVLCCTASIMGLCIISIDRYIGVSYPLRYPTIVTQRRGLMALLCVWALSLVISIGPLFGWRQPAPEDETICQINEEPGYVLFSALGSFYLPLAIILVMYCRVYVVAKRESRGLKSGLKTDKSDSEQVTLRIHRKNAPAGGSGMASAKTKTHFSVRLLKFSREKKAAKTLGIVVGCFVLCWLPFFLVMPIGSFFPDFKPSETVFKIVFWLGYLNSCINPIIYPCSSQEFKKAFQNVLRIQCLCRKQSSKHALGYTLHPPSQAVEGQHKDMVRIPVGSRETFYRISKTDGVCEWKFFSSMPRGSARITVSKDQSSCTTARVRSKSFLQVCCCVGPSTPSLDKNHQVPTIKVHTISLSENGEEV
Sequence of UniProt Q15399 (whole entry, looked up): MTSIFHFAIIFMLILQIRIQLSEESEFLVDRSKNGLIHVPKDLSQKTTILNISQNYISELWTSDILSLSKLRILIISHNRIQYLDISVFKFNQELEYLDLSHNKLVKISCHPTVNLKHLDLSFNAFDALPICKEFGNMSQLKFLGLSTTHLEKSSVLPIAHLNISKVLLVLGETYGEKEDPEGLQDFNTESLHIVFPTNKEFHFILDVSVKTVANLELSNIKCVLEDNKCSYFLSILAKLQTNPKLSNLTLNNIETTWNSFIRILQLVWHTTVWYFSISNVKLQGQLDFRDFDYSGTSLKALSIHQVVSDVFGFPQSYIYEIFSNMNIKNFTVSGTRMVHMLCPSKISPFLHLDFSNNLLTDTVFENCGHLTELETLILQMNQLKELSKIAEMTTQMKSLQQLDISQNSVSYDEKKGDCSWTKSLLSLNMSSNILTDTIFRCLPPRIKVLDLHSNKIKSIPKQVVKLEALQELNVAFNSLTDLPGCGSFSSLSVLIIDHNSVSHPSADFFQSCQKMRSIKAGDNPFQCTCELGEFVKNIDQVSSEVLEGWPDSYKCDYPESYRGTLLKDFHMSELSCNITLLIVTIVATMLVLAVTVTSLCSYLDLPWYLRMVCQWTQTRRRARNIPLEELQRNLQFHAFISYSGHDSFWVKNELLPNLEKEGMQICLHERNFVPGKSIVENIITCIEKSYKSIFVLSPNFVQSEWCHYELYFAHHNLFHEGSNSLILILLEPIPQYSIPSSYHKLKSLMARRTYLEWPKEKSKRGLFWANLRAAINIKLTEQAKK
Sequence of UniProt Q704Y3 (whole entry, unmodified, looked up): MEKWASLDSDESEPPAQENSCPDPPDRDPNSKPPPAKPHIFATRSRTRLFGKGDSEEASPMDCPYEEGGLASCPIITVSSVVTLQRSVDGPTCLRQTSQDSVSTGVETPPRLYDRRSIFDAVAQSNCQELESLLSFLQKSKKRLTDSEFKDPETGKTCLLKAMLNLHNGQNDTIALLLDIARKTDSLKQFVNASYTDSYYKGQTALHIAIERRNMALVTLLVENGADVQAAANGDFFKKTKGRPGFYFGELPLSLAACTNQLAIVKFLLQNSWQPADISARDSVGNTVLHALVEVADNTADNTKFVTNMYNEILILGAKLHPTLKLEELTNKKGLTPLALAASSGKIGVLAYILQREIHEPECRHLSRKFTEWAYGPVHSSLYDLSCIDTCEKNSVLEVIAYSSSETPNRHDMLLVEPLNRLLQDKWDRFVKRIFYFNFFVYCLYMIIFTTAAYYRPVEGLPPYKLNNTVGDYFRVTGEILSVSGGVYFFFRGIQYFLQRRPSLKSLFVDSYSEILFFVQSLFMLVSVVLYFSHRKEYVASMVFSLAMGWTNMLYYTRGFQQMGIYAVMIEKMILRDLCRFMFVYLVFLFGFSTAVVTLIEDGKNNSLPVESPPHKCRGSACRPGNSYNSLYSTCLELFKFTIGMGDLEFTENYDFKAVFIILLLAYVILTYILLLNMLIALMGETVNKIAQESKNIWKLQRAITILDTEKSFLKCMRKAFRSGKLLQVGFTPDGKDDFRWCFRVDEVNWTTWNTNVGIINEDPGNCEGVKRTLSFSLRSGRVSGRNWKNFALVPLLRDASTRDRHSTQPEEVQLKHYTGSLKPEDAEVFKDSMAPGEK
Sequence of UniProt O75762 (whole entry, looked up): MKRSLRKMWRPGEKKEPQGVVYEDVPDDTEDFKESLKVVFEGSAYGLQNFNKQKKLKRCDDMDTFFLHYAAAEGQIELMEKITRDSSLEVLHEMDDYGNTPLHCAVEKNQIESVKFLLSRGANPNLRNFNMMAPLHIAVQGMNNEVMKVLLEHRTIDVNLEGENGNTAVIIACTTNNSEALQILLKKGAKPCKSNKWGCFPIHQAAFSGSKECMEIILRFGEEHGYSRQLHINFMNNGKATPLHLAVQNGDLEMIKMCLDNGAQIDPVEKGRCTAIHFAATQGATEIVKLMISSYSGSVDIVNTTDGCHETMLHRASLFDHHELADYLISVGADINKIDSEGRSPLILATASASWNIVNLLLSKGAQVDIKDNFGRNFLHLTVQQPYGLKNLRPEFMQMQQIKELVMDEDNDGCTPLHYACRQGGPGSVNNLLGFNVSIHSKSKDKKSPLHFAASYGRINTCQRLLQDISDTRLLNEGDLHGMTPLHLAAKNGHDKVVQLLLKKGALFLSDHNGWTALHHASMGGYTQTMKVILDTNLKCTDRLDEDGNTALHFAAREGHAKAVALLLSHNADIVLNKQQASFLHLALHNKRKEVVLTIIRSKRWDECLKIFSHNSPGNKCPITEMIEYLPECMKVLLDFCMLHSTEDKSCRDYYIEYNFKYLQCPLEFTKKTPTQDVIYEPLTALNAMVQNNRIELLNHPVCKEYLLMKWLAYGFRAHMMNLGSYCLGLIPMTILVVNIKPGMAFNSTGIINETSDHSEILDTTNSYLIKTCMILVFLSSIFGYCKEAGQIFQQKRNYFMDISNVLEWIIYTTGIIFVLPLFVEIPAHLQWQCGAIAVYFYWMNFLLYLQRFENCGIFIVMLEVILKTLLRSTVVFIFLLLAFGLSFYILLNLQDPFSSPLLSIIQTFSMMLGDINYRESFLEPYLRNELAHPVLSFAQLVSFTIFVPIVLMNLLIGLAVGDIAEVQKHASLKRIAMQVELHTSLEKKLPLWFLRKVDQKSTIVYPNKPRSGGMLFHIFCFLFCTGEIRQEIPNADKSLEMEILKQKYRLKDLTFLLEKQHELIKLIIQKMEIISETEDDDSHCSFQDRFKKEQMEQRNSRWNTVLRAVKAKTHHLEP
Sequence of UniProt P41231 (whole entry, looked up): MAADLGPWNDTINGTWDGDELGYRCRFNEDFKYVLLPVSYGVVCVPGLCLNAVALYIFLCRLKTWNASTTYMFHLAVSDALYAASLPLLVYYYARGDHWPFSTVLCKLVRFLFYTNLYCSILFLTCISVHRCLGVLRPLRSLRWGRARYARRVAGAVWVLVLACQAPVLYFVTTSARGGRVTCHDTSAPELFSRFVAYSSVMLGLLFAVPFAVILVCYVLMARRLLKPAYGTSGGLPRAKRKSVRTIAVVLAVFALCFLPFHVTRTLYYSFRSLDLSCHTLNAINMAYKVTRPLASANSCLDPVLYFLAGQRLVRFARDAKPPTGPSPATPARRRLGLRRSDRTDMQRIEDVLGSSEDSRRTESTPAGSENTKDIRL

Structure (SMILES)	target	test	system	conditions	EC50 [µM]
O=C(Nc1ccn(Cc2ccc(O)cc2C(F)(F)F)n1)c1c(F)cccc1F	TRPA1 (Homo sapiens, UniProt O75762)	ion channel activity, agonist	cells overexpressing TRPA1	human receptor	> 10
O=[N+]([O-])c1ccc(-c2cn(-c3cc([N+](=O)[O-])ccc3NCc3ccccc3)cn2)cc1	Toll-like receptor 1/2 (Homo sapiens, UniProt O60603+Q15399)	reporter gene, agonist	HEK-Blue hTLR2	24 h	> 100
CCc1nccnc1CC	uncharacterized protein (Vulpes vulpes, UniProt A0A3Q7SVK8)	cAMP, agonist	HEK293 transfected with uncharacterized protein	–	1300 ± 744
CCCC[C@@H]1NC(=O)[C@H](Cc2ccc(O)cc2)NC(=O)[C@@H]2CCCN2C(=O)[C@H](CC(=O)O)NC(=O)[C@H](C)NC(=O)[C@H](Cc2ccccc2)NC(=O)[C@@H]2CSCCC(=O)N3CN(CN(C3)C(=O)CCSC[C@@H](C(=O)N[C@@H](C)C(N)=O)NC1=O)C(=O)CCSC[C@H](NC(C)=O)C(=O)N[C@@H](CC(C)(C)C)C(=O)N1CCC[C@H]1C(=O)N[C@@H](CCC(=O)O)C(=O)N[C@H](CCCCNC(=O)CCc1cn(CCOCCOCCOCCOCCOCCOCCOCCOCCOCCOCCNC(=O)CCOCCN(CCOCCC(=O)NCCOCCOCCOCCOCCOCCOCCOCCOCCOCCOCCn3cc(CCC(=O)NCCCC[C@H]4NC(=O)[C@H](CCC(=O)O)NC(=O)[C@@H]5CCCN5C(=O)[C@H](CC(C)(C)C)NC(=O)[C@@H](NC(C)=O)CSCCC(=O)N5CN6CN(C5)C(=O)CCSC[C@H](NC(=O)[C@H](Cc5ccc(O)cc5)NC(=O)[C@@H]5CCCN5C4=O)C(=O)N[C@@H](Cc4ccccc4)C(=O)N[C@@H](C)C(=O)N[C@@H](CC(=O)O)C(=O)N4CCC[C@H]4C(=O)N[C@@H](Cc4ccc(O)cc4)C(=O)N[C@@H](CCCC)C(=O)N[C@H](C(=O)N[C@@H](C)C(N)=O)CSCCC6=O)nn3)CCOCCC(=O)NCCOCCOCCOCCOCCOCCOCCOCCOCCOCCOCCn3cc(CCC(=O)N[C@H]4CSCCC(=O)N5CN6CN(C5)C(=O)CCSC[C@H](NC(=O)[C@@H](CC(=O)O)NC(=O)[C@H](Cc5cccc7ccccc57)NC(=O)[C@@H]5CCCN5C4=O)C(=O)N[C@@H](CCSC)C(=O)N[C@@H](CCCCNC(=N)N)C(=O)N[C@@H](CC(=O)O)C(=O)N[C@@H](Cc4c[nH]c5ccccc45)C(=O)N[C@@H](CO)C(=O)N[C@@H]([C@@H](C)O)C(=O)N4CCC[C@H]4C(=O)N4C[C@H](O)C[C@H]4C(=O)N[C@@H](Cc4c[nH]c5ccccc45)C(=O)N[C@H](C(N)=O)CSCCC6=O)nn3)nn1)C(=O)N1CCC[C@H]1C(=O)N[C@@H](Cc1ccc(O)cc1)C(=O)N2	Tumor necrosis factor receptor superfamily member 9/Nectin-4	reporter gene, agonist	HT-1376 reporter coculture	–	0.00014
Cn1cc2c(C(=O)O)ccc(NS(=O)(=O)c3ccc(OCC4CCC4)c(Cl)c3)c2n1	ADRA1A (Homo sapiens, UniProt P35348)	antagonist	–	–	> 10
CC(=O)c1cc([N+](=O)[O-])c(Sc2cccc(Cl)c2Cl)s1	USP5 (Homo sapiens, UniProt P45974)	enzyme activity, inhibitor	–	–	> 50
CCCCCCCC/C=C\CCCCCCCC(=O)NCCc1ccc(O)c(O)c1	Trpv1 (Mus musculus, UniProt Q704Y3, T557S)	ion current, agonist, whole-cell patch clamp	–	24 °C, T557S, +80 mV	0.31 ± 0.14
O=c1ccn([C@@H]2O[C@H](COP(=O)(O)OP(=O)(O)OP(=O)(O)O)[C@@H](O)[C@H]2O)c(=O)[nH]1	P2Y purinoceptor 2 (P2RY2, Homo sapiens, UniProt P41231)	agonist, cell-based	–	–	0.592
CCCC[C@@H]1NC(=O)[C@H](Cc2ccc(O)cc2)NC(=O)[C@@H]2CCCN2C(=O)[C@H](CC(=O)O)NC(=O)[C@H](C)NC(=O)[C@H](Cc2ccccc2)NC(=O)[C@@H]2CSCCC(=O)N3CN(CN(C3)C(=O)CCSC[C@@H](C(=O)N[C@@H](CNC(=O)CCc3cn(CCOCCOCCOCCOCCOCCOCCOCCOCCOCCOCCOCCOCCOCCOCCOCCOCCOCCOCCOCCOCCOCCOCCOCCNC(=O)N[C@H]4CSCCC(=O)N5CN6CN(C5)C(=O)CCSC[C@H](NC(=O)[C@@H](CC(=O)O)NC(=O)[C@H](Cc5cccc7ccccc57)NC(=O)[C@@H]5CCCN5C4=O)C(=O)N[C@@H](CCSC)C(=O)N[C@@H](CCCCNC(=N)N)C(=O)N[C@@H](CC(=O)O)C(=O)N[C@@H](Cc4c[nH]c5ccccc45)C(=O)N[C@@H](CO)C(=O)N[C@@H]([C@@H](C)O)C(=O)N4CCC[C@H]4C(=O)N4C[C@H](O)C[C@H]4C(=O)N[C@@H](Cc4c[nH]c5ccccc45)C(=O)N[C@H](C(N)=O)CSCCC6=O)nn3)C(N)=O)NC1=O)C(=O)CCSC[C@H](NC(=O)[C@H](C)NC(C)=O)C(=O)N[C@@H]([C@@H](C)CC)C(=O)N[C@@H](CCC(=O)O)C(=O)N[C@@H](CCC(=O)O)C(=O)NCC(=O)N[C@@H](CCC(N)=O)C(=O)N[C@@H](Cc1ccc(O)cc1)C(=O)N2	Tumor necrosis factor receptor superfamily member 9/Nectin-4	reporter gene, agonist	HT-1376 coculture with reporter cells	–	0.00525

Repeated from above:
Structure (SMILES)	target	test	system	conditions	EC50 [µM]
O=C(Nc1ccn(Cc2ccc(O)cc2C(F)(F)F)n1)c1c(F)cccc1F	TRPA1 (Homo sapiens, UniProt O75762)	ion channel activity, agonist	cells overexpressing TRPA1	human receptor	> 10
